Measurements pooled from the literature.
Every numbered part comes from another study and shows a few of its results, in no order.

Series 1
Target: Sox, HMG box (Pigoraptor chileana)
Technique: Spec-seq
Form: double-stranded DNA, one strand shown
Matrix: in vitro
Tested at: not given
Setting: whole probe, mean of replicates
Baseline: not given
Direction: lower = stronger binding
Shared flanks, not repeated: GAGTCGTCTCGTCAGCAC … CCGTAGAGCACTCAGGTC
Residues (chain): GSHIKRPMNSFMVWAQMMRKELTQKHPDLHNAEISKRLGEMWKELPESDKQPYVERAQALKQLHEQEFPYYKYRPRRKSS
Oligonucleotide	relative binding energy [ln ratio]
CATTTAC	0.326
CATTCAT	-0.744
CATGGAC	0.421
CATTAAG	-0.183
CATGCAC	0.463
GTTCGTT	1.58
CCGAGTT	0.83
CATTGGA	0.11

Series 2
Target: human cyclin A2
Read-out: peptide binding
Technique: competitive growth sequencing
Form: peptide
Organism: Saccharomyces cerevisiae
Strain: cyclin A2-Cln2 fusion strain
Tested at: concentration not given
Setting: peptide tiling library
Baseline: unfused Cln2 strain
Direction: direction not given
Sequence	binding score
TTTTSPRTPPPLTVQD	-0.672
PFSENVSAVQKLDFSD	1.01
VLPGGVPSPGASLTSM	0.366
GAEELEDLVHFSVSEL	0.766
SGYLTDENEVGFRG	0.366
ASTTRARAFVENDSPS	0.25
FQDSGYNELKSCSFDN	0.305
KDDDKAWEYEERDRRS	0.682
KRNLLNEFDRII	2.31

Series 3
Target: RNA binding protein fox-1 homolog 2, RRM domain, GST-SBP tag (RBFOX2, Homo sapiens, UniProt O43251-10, residues 100-194)
Technique: RNA Bind-n-Seq
Form: RNA
Matrix: in vitro
Tested at: 365 nM
Setting: natural RNA segment, single round, ends assumed
Baseline: no-protein control
Direction: higher = stronger binding
Shared flanks, not repeated: GGGAGUUCUACAGUCCGACGAUC … UGGAAUUCUCGGGUGCCAA
Residues (chain): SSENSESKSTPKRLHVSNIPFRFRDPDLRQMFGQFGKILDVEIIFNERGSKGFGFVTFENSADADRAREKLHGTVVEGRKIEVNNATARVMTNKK
Oligonucleotide	RBNS enrichment (R)
CUUCCCCCUGAAUUGACCAGUAGCAGCUCCAGCCCCAUUUCACAAAAGUGAGUUUGGCCAGGAGGAAUGAGACGUCUCCUGAAAUAGGAACACCGGAACAUCAUGCUCAC	0.275
UAUUUUAAUGUAGAAAAUGUGACAUCUCGUUAUAAAUGAAAAUAAAUGUUAAAUUAAAUGGAAGUUACCUGAAAUGACUCUGUGUUUUCUCUCGAGAGGAACGGCAGCAA	0.409
GAGUGACCAGGUCAGUGGCCCUGCCCGUGAAGGCUGGCGAUUAACUGUGGCAGCAGACAUGUCCUGUCCUCAUCUUGGACAGGCCUCCCUUCCCCGUUGGCGUGCUUGGU	1.02
CCUAUCGUUCUCCUUCCUUCUUGGCAGGCUUCAGGUUUUGCUGCAGCCCCUGGAGCCAACAUUUUGGUUGUGGGAGGCUGACCUCUUGCCUGCCUCCUUGUGUGGACAGA	0.305
CAGUGUUACUUGCAGGUACUUUGGUUAAUGUUGAUUUAAAUUUUCAUGAAUGUGCUGGUGAACACUGUGACCAGGCUUUUGUAGAUGGCGAUGUGUUAUAGACGGUGCUC	2.23
AUCUGGUAAUAAUACCAUGCAAUAUAGCGUUGUAUACCAACUUAGUGCAUUUUAUACUGUAUUAAAUAUGGAGAUACUUCUAAUGCCUCUCUAAAAUUAAAUUUUACAUA	0.38
UGAGCUGCCUUAAGGGGAAGAGUGCCAAUGGUCUUCGUGGACUUCAGAAGUGACUUUGAGACUGUUCCUGCUGACCUUUUGAGAUAGUCACUUAAGGAAGGAUGGCUCUC	0.391

Single results of other studies
Molecule	target	test	system	setting	how to read	endpoint	value
PhoQ, residues 284 288 289 292 302 303 GASLAW	PhoP, residues 12 14 15 18 19 AGCRL (Escherichia coli, UniProt P23836)	Sort-seq, measured: YFP reporter	E. coli	PhoQ-PhoP variant library, together with: 10 µM Mg2+	baseline: high Mg2+ state, higher = stronger signaling	fold induction	1.81

Some of these lines once more (series 2):
Sequence	binding score
FQDSGYNELKSCSFDN	0.305
KDDDKAWEYEERDRRS	0.682
